Measurements collected from several papers.
Every numbered part comes from another study and shows a few of its results, in no order.

Series 1
Target: Protein C-ets-1 (ETS1, Homo sapiens, UniProt P14921, residues 1-441, K379A, full length assumed)
UniProt P14921, sequence (whole entry, unmodified, looked up): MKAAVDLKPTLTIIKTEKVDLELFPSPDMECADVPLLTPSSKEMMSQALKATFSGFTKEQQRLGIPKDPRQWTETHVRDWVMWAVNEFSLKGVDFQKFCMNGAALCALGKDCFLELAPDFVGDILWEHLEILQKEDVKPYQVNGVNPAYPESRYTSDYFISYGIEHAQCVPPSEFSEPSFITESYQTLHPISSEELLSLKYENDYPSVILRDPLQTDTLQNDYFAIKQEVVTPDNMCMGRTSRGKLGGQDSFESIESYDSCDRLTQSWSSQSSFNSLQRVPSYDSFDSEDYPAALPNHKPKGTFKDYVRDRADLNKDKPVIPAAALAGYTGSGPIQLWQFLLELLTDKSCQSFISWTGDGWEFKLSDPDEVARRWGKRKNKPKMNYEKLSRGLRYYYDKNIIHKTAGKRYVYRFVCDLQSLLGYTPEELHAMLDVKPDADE
Technique: protein-binding microarray
Molecule type: double-stranded DNA, one strand shown
Medium: in vitro
Tested at: not given
Notes: k-mer, scored over probes, only values ≥0.25
Reading: higher = stronger binding
Quantity: E-score
GCCGGATA: 0.274
CCGGGAGA: 0.272
CATCCCGG: 0.373
ATATTAGG: 0.274

Series 2
Cell line: HEK-293T/ACE2
Tested at: 10 µM
Time: 16 h
Reference: vehicle
Quantity: viability
Cc1cccn2c(=O)c(-c3nnn[nH]3)cnc12: 103%
CCN(CC)C(=O)N1CCN(C)CC1: 98.2%
CC(C)c1nc(CN(C)C(=O)N[C@H](C(=O)N[C@@H](Cc2ccccc2)C[C@H](O)[C@H](Cc2ccccc2)NC(=O)OCc2cncs2)C(C)C)cs1: 103%

Series 3
Target: Replicase polyprotein 1ab, main protease (rep, Severe acute respiratory syndrome coronavirus 2, UniProt P0DTD1)
Observed: enzyme activity
Mode: inhibitor
Tested at: 20 µM
Notes: hit confirmation, no DTT
Quantity: inhibition
COc1ncc(-c2ccc3nccc(-c4ccnnc4)c3c2)cc1NS(=O)(=O)c1ccc(F)cc1F: 107%
COC(=O)CC[C@H](NC(=O)[C@H](CC(=O)OC)NC(=O)OCc1ccccc1)C(=O)N[C@H](C(=O)N[C@@H](CC(=O)OC)C(=O)CF)C(C)C: 110%
C[C@H]1COC2=C1C(=O)C(=O)c1c2ccc2c1CCCC2(C)C: 92.3%
COc1ccc2[nH]c([S+]([O-])Cc3ncc(C)c(OC)c3C)nc2n1 (stereo not shown): 90.2%

Series 4
Target: Fragile X messenger ribonucleoprotein 1, C-terminal low-complexity region (Fmr1, Mus musculus, UniProt P35922)
Technique: RNA Bind-n-Seq
Molecule type: RNA
Medium: in vitro
Tested at: 200 nM
Notes: whole 134-nt RNA, ends assumed
With: 150 mM KCl
Reference: input library
Reading: higher = stronger binding
Quantity: log2 enrichment
Constant ends, left off below: GGGAGUUCUACAGUCCGACGAUC … UGGAAUUCUCGGGUGUCAAGG
CCUCAAGUCCUGUGCUACACAUCGUAUGUACCGAAUCGGCCGGCCGGGCCGGGAAAGUAUUAUGUUACGCCGUUCGGAUCUGCACUUCCA: -0.187
UCCUGUGCUACACAUCGUAUGUACCGAAUCGGGGUUUUUUGGGUUUUUUGGGUUUUUUGGAAAGUAUUAUGUUACGCCGUUCGGAUCUGC: 0.177
CCUGUGCUACACAUCGUAUGUACCGAAUCGGGGAAAAAGGGGAAAAAGGGGUUUUUGGGGAAAGUAUUAUGUUACGCCGUUCGGAUCUGC: 0.278
AAGUCCUGUGCUACACAUCGUAUGUACCGAAUCGGGAAAAAAAGGGUGGGUUUGGGAAAGUAUUAUGUUACGCCGUUCGGAUCUGCACUU: 0.858
UUCCUCAAGUCCUGUGCUACACAUCGUAUGUACCGAAUCGGAGGUGGAGGAAAGUAUUAUGUUACGCCGUUCGGAUCUGCACUUCCAGCA: -0.928
GCAGGAAGUAAAAACAAAUGGAAAUGCUUCGGAUAGUGGCAGGGGUGGGGGUUGCUAAGGAAAGGGUGGAAUGGGAGUGGGUAAAGAGUU: 0.122
CACAGACAACACGCACCCACACAGACACAGAGGGAAGGGGUUGGGAUGGGGACAGGGUGCACAGCAGGGCGGGGUAGGAAAACAGCCCCU: 0.849
UAACUUUGGAGGAGGAUCUGAUGGAUAUGGCAGUGGACGUGGAUUUGGGGAUGGCUAUAAUGGGUAUGGAGGAGGACCUGGAGGUGGCAA: 0.341

Series 5
Target: Replicase polyprotein 1ab, nsp13 helicase (rep, Severe acute respiratory syndrome coronavirus 2, UniProt P0DTD1)
Mode: inhibitor
Tested at: 20 µM
Quantity: inhibition
O=C1c2c(O)cccc2C([C@@H]2O[C@H](CO)[C@@H](O)[C@H](O)[C@H]2O)c2cc(CO)cc(O)c21 (stereo partly shown): 12.1%
COc1c(C)c(C(=O)c2ccc(N)c(C(=O)O)c2)n2ccccc12: 6.88%
CC(C)(C)C(=O)OCOC(=O)[C@@H]1N2C(=O)[C@@H](NC(=O)[C@H](N)c3ccccc3)[C@H]2SC1(C)C: -0.19%
CCC[C@@H]1CC2=CC(=O)CC[C@]2(C)[C@H]2CC[C@@]3(C)[C@@H](CC[C@@]3(O)CCC(=O)O)[C@H]12: 3.97%
C=CCC1(CC(C)C)C(=O)NC(=O)NC1=O: 4.09%
NCC(=O)N[C@@H](CCC(N)=O)C(=O)O: 6.05%
Cc1cccc(-c2[nH]c(CNc3ccccc3F)nc2-c2ccc3ncnn3c2)n1: 0.87%
Oc1ccc(Cl)c2c1CCC2: 5.54%
C=C1C(=O)[C@]23[C@H](O)[C@H]1CC[C@H]2[C@@]12CO[C@]3(O)[C@@H](O)[C@@H]1C(C)(C)CC[C@@H]2O: 60.9%
CCOC(=O)[C@]12CC1/C(=N\O)c1ccccc1O2 (mixture of isomers): 8.37%
c1cc2c(cc1C1CCCCC1)c1c3n2CCNC3CCC1 (stereo not shown): 2.79%
CNC(=O)c1ccccc1Nc1nc(Nc2ccc3c(c2OC)CCC[C@H](N2CCN(CCO)CC2)C3)ncc1Cl: 2.5%
Nc1nc(Cl)nc2c1ncn2[C@@H]1O[C@H](CO)[C@@H](O)[C@H]1O: 0.39%
CC(C(=O)O)c1ccc(CC2CCCC2=O)cc1 (stereo not shown): 2.04%
O=C(O)c1ccccc1: -5.65%
CCc1oc2ccccc2c1C(=O)c1ccc(OCC(=O)O)cc1: 2.14%
Cc1cc(OI)c(C(C)C)cc1-c1cc(C(C)C)c(OI)cc1C: 5.21%
Cn1c(=O)[nH]c2ncn(C)c2c1=O: 3.09%
COCC(=O)Nc1c(I)c(C(=O)NCC(O)CO)c(I)c(C(=O)N(C)CC(O)CO)c1I (mixture of isomers): 3.08%
Clc1ccc(Nc2nnc(Cc3ccncc3)c3ccccc23)cc1: 6%
O=C(/C=C/c1cccc(F)c1)NC1CC1: 2.57%
CCCCCCCC/C=C\CCCCCCCC(=O)N[C@@H](CO)Cc1ccc(O)cc1: -4.67%
CC(=O)NCC(=O)N[C@H](CCC(=O)O)C(=O)O: 10.6%
COc1ccc([C@@H]2CC(=O)c3c(O)cc(O[C@@H]4O[C@H](CO[C@@H]5O[C@@H](C)[C@H](O)[C@@H](O)[C@H]5O)[C@@H](O)[C@H](O)[C@H]4O)cc3O2)cc1O: 7.93%
COc1ccc(-c2ccc3cc(C(=O)O)ccc3c2)cc1[C@]12C[C@H]3C[C@H](C[C@H](C3)C1)C2: 5.9%

Series 6
Target: RING finger protein unkempt homolog, zinc fingers 1-6, GST-SBP tag (UNK, Homo sapiens, UniProt Q9C0B0, residues 30-357)
UniProt Q9C0B0, sequence (30-357, looked up): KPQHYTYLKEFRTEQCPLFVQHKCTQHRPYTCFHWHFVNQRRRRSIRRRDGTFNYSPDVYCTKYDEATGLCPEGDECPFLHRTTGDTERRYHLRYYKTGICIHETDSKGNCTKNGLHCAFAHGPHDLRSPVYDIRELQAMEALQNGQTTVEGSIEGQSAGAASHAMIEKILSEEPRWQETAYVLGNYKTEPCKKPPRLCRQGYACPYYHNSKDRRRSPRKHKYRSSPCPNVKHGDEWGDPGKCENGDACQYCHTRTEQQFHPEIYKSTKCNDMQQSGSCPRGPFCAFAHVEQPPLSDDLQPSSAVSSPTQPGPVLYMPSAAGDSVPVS
Technique: RNA Bind-n-Seq
Molecule type: RNA
Medium: in vitro
Tested at: not given
Notes: RNA with constant flanks, human and mouse sites, ends assumed
Reference: input RNA pool
Reading: higher = stronger binding
Quantity: bound/input enrichment
Constant ends, left off below: GGGAGUUCUACAGUCCGACGAUC … CAACAGAGGAUUGAGCAUCA
AACUUAUUGGAUGCAGUAUAUUCAUUUUGCUUGAUGAAUUACUUUCCCCUGGCUCCUUUUAAUCAGCUUCUGCAAAAAGACAUCAUCAGUGAGCUGCUGACAUCAGAUGACAUGAAGAAU: 0.138 ratio
GCCACCAGAUCCCAGAAACAUGACCCUUGCUGCCUACAAAGAGAAGAUGAAGGAGCUCCCGCUGGUGUCCUUGUUCUGCUCCUGCUUCCUGGCCGAUCCCCUGAAUAAGUCGUCCUACAA: 0.335 ratio
AAUGUAGAAUGGGAAACUAAUAGAGAUGAUUCUGACAAUGGAGAUAUUAAUUAUGAUUAUGUUCAUGAAUUGUCAUUGGAAAUGAAGCGUCAGAAGAUACAGAGGGAAUUAAUGAAGCUG: 1.51 ratio
UCCUGCCCCGACUCUUCUGAACCAGCUGUACAAGUCCAGUUAGAUUUUUCCACACUCACCAGGUCUGUUUAUUCAGAUAGGGGUGAUGAUUCUCCCGAUUCUUCCCCAGAAGAACAGAAA: 2.27 ratio
AAAGAGAUGAUUAAGAAGACAACAAAACUGAUUGAGACUACAUCCAACAUGAACUCCAGUUACAUUAAGUUUCUAAAACAGGCAGCAGAUAAUUCAGAAAUGACUUCUGCUAUGAAGUUA: 0.136 ratio
AGAAGUACACAGGCUGCUACCCAAGUUGUUCUGAAUGUUCCUGAAACAAGAGUAACAUGUUUAGAAAGUGGACUCAGAGUAGCUUCGGAAGACUCUGGGCUCUCAACAUGCACAGUUGGA: 0.131 ratio
UUGGCCAGUCAGUAUUCUGCUAAUGAAAUGUAUGCAGAAGCACUGAACACAUACCAAGUUAUAGUGAAAAACAAGAUGUUUAGCAAUGCAGGAAGACUGAAAGUGAAUAUGGGAAAUAUU: 0.624 ratio
ACUGAUUUAUAUGAUAUAAAACGUGCAGUGGUUCACACCCAUCUUCUUAACCCUGAGUGGUUAGUCAACUACUUUGGUUCCUUAUCAGUAGAAGACUCCCUAGAAUGUCUCAGAGCCAUG: 0.209 ratio
